Measured values collected from several papers.

With CC(C)c1nc(N(C)S(C)(=O)=O)nc(-c2ccc(F)cc2)c1/C=C/[C@@H](O)C[C@@H](O)CC(=O)O the Cmax was 4.37 ng/mL (healthy human subjects, plasma; oral, 20 mg, day 1, fed, single dose, alone, geometric mean).
For N.N.O=C([O-])C1(C(=O)[O-])CCC1.[Pt+2], the Cmax was 18000 ng/mL (refers to: non-protein-bound platinum; human, plasma ultrafiltrate; target AUC 3, median).
With CC(=O)c1c(C)c2cnc(Nc3ccc(C4CCN(CCS(C)(=O)=O)CC4)cn3)nc2n(C2CCCC2)c1=O the Cmax was 95.7 ng/mL (human, plasma; oral, 50 mg twice daily, day 1, single dose, together with: letrozole).
With C[C@H](NC(=O)c1c(C(F)F)nn(C)c1Oc1cccc(C(F)(F)F)c1)c1ccc(C(=O)O)cc1 the Cmax was 1000 ng/mL (human, plasma; 750 mg, cycle 1 day 8, mean).
The Cmax of CCN(CC)C(=O)[C@@H]1C=C2c3cccc4[nH]cc(c34)C[C@H]2N(C)C1 is reported as 2 ng/mL (human, plasma; dose not given, after placebo pretreatment).
The Cmax of OCc1ncc2n1-c1ccc(Cl)cc1C(c1ccccc1F)=NC2 is reported as 3.7 ng/mL (humans, plasma; 3 mg of midazolam, together with: isavuconazole).
The Cmax of NCCCS(=O)(=O)O is reported as 1210 ng/mL (human, plasma; oral, 265 mg twice daily, steady state week 65).
With COc1ccc(F)cc1C(=O)NCc1ccc(-c2nn([C@@H](C)C(F)(F)F)c(N)c2C(N)=O)cc1 the Cmax was 8620 ng/mL (human, plasma; oral, 200 mg once daily, together with: intravenous midazolam).
For OCc1ncc2n1-c1ccc(Cl)cc1C(c1ccccc1F)=NC2, the Cmax was 2.67 ng/mL (human, plasma; oral, 2 mg midazolam, day 1, midazolam alone, geometric mean).
The Cmax of O=C(O)C(F)(F)C(F)(F)C(F)(F)C(F)(F)C(F)(F)C(F)(F)C(F)(F)F is reported as 27200 ng/mL (two-compartment model; human, plasma; oral, 50 mg weekly).
With CNC(=O)c1c(C)oc2cc(Oc3ccnc4cc(OCCN5CCOCC5)ccc34)ccc12 the Cmax was 31.3 ng/mL (human, fed; concentration not given, mean).
The Cmax of O[C@H]1CCCN[C@@H]1CCCn1cnc2c(Cl)c(Cl)ccc21 is reported as 242 ng/mL (human, UGT2B7 NN phenotype, plasma; oral, 150 mg, single dose).
OCc1ncc2n1-c1ccc(Cl)cc1C(c1ccccc1F)=NC2 has a Cmax of 17 ng/mL (human, plasma; 7.5 mg midazolam, day 12, arithmetic mean, together with: amenamevir 400 mg).
CCC(CC)COC(=O)[C@H](C)N[P@](=O)(OC[C@H]1O[C@@](C#N)(c2ccc3c(N)ncnn23)[C@H](O)[C@@H]1O)Oc1ccccc1 gave a Cmax of 2410 ng/mL (human, plasma; intravenous, 100 mg single dose).
For N.N.O=C([O-])C1(C(=O)[O-])CCC1.[Pt+2], the Cmax was 20000 ng/mL (ICP-MS platinum, refers to: platinum; human patients, plasma; dose not given, carboplatin target AUC 3, cycle 1 day 1).
The Cmax of COC[C@@H](NC(C)=O)C(=O)NCc1ccccc1 is reported as 2530 ng/mL (fluorescence quenching; human healthy male, plasma; oral, 100 mg single).
The Cmax of COc1ccc(C[C@@H]2NC(=O)[C@H]([C@@H](C)O)NC(=O)[C@@H]3[C@@H]4CCN3C(=O)[C@@H]3Cc5cn(c6ccc(F)cc56)CCCCCCN(Cc5ccc(cc5)CCNC(=O)[C@]5(C)CCCN5C2=O)C(=O)CCC(=O)N[C@@H](C)C(=O)N[C@H](CNC(=O)CCCCC[N+](C)(C)C)C(=O)N[C@@H](Cc2cccc(c2)CNC(=O)CO4)C(=O)N3)cc1 is reported as 41.3 nM (human, plasma; oral, 100 mg, together with: sodium caprate 1800 mg).
O=c1ccc2ncc(=O)n3c2n1C[C@H]3CN1CCC(NCc2cc3c(cn2)OCCC3)CC1 gave a Cmax of 3990 ng/mL (healthy human volunteers, plasma; oral, 1500 mg, arithmetic mean, alone).
The Cmax of Cc1ncc2n1-c1ccc(Cl)cc1C(c1ccccc1F)=NC2 is reported as 14.6 ng/mL (human, plasma; oral, dose not given, single dose, mean, together with: rimegepant).
With OCc1ncc2n1-c1ccc(Cl)cc1C(c1ccccc1F)=NC2 the Cmax was 3.7 ng/mL (human, plasma; oral, 2.5 mg).
The Cmax of OCc1ncc2n1-c1ccc(Cl)cc1C(c1ccccc1F)=NC2 is reported as 6.4 ng/mL (healthy human volunteers, plasma; 5 mg single dose, day 1, fed, given alone).
CC[C@H](C)C(=O)O[C@H]1C[C@H](O)C=C2C=C[C@H](C)[C@H](CC[C@@H](O)C[C@@H](O)CC(=O)O)[C@H]21 has a Cmax of 786 nM (OATP1B1/1B3 humanized mouse; oral, dose not given).
OCc1ncc2n1-c1ccc(Cl)cc1C(c1ccccc1F)=NC2 gave a Cmax of 4.1 ng/mL (human; concentration not given, together with: risdiplam).
With CO[C@H]1/C=C\C=C(/C)C(=O)NC2=CC(=O)C(N)=C(C[C@@H](C)C[C@H](OC)[C@H](O)[C@@H](C)/C=C(\C)[C@@H]1OC(N)=O)C2=O the Cmax was 3380 ng/mL (human, plasma; 400 mg/m2).
Cc1ncc2n1-c1ccc(Cl)cc1C(c1ccccc1F)=NC2 gave a Cmax of 7.4 ng/mL (human healthy subjects, plasma; oral, 2 mg, alone, fed, geometric mean, together with: omeprazole 20 mg).
With CCCCCCCCCCC(=O)O[C@H]1CC[C@H]2[C@@H]3CCC4=CC(=O)CC[C@]4(C)[C@H]3CC[C@]12C the Cmax was 12 ng/mL (refers to: testosterone; human, plasma; oral, 237 mg testosterone undecanoate, average).
Cn1ncc(-c2nc(N[C@H]3CC[C@H](N)CC3)ncc2Cl)c1CC1CC1 has a Cmax of 1.14 ng/mL (HPLC-MS/MS; human patients; oral, 1 mg, day 1).

Excerpt of the above:
The Cmax of O[C@H]1CCCN[C@@H]1CCCn1cnc2c(Cl)c(Cl)ccc21 is reported as 242 ng/mL (human, UGT2B7 NN phenotype, plasma; oral, 150 mg, single dose).
OCc1ncc2n1-c1ccc(Cl)cc1C(c1ccccc1F)=NC2 has a Cmax of 17 ng/mL (human, plasma; 7.5 mg midazolam, day 12, arithmetic mean, together with: amenamevir 400 mg).
CCC(CC)COC(=O)[C@H](C)N[P@](=O)(OC[C@H]1O[C@@](C#N)(c2ccc3c(N)ncnn23)[C@H](O)[C@@H]1O)Oc1ccccc1 gave a Cmax of 2410 ng/mL (human, plasma; intravenous, 100 mg single dose).
